Assay results collected from several papers.
Every numbered part comes from another study and shows a few of its results, in no order.

Block 1 — technique: protein-binding microarray; molecule type: double-stranded DNA, one strand shown; matrix: in vitro; concentration: 940 nM top; notes: 60-bp whole probe; added: salmon DNA 0.4 mg/ml; relative to: random background probes; reading: higher = stronger binding; quantity: fitted relative affinity; constant ends, left off below: GCCTAGCAC … GTCTTGATTCGCTTGACGCTGCTG
Target: Interferon regulatory factor 5, full length, phosphomimetic (IRF5, Homo sapiens, UniProt Q13568-2, residues 1-514, S451D/S453D/S456D/S462D)
TTAGGACTGGACACTGGCTTAGTGCTA: -0.497 z-score
TTAGAACTGAGTCGCGATTAGTGCTAG: 0.0446 z-score
TCATATTTGTCCCTATTACTGTGCTAG: 1.05 z-score
GACGACCTGAGTATCGAGACGTGCTAG: 1.41 z-score
GACGAACTGGGGCCTGGAGACGTGCTA: -0.239 z-score

Block 2 — technique: RNA Bind-n-Seq; molecule type: RNA; matrix: in vitro; concentration: 20 nM; notes: 6-mer, flanks averaged, single round; added: 150 mM KCl; relative to: input library; reading: higher = stronger binding; quantity: 6-mer enrichment (R)
Target: TAR DNA-binding protein 43, full length, His tag (TARDBP, Homo sapiens, UniProt Q13148, residues 1-414)
GCCCUU: 0.697
GGCCGC: 1.55
AAGGCU: 0.749
ACGAAU: 0.719

Block 3 — technique: protein binding microarray; molecule type: double-stranded DNA, one strand shown; matrix: in vitro; concentration: not given; relative to: not given; reading: higher = stronger binding; quantity: E-score
Target: Histone acetyltransferase KAT6A, both winged helices, GST fusion (KAT6A, Homo sapiens, UniProt Q92794, residues 1-181)
Notes: 8-mer, flanks averaged, mean of 2 arrays, mostly near background
Residues (chain): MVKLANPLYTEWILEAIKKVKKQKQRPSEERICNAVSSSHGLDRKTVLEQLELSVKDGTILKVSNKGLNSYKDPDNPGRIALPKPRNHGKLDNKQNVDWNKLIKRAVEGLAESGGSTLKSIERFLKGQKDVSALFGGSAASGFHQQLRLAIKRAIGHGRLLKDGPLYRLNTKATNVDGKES
AGGTGAAA: -0.108
GCGAATAC: 0.105
ATTCTGCG: 0.0812
AATACTCG: -0.0252
TCACTTCA: -0.0255
AGTACGAT: -0.0502
AGCTTTCC: 0.0874
GAGCTGGA: -0.133

Mixed results
PhoQ, residues 284 288 289 292 302 303 SVHLDV  fold induction (PhoP, residues 12 14 15 18 19 GQALL (Escherichia coli, UniProt P23836); Sort-seq, refers to: YFP reporter; E. coli; PhoQ-PhoP variant library, added: 10 µM Mg2+; relative to: high Mg2+ state, higher = stronger signaling): 8.79

Excerpt of the above (block 3):
AATACTCG: -0.0252
